# Measurements collected from several papers.
# A part holds a random share of what one study measured. Positions count from the first letter of the parent shown.

# Series 1 — method: DHFR PCA, deep sequencing; medium: yeast; added: (+)-ABA 0.39 µM; baseline: wild-type fitted maximum; reading: higher = stronger binding
# Target: ABI1, truncated, D143A, DHFR fusion (Arabidopsis thaliana)
# Notes: methotrexate growth selection, single substitutions
# Starting sequence: PYL1, truncated, DHFR fusion (Arabidopsis thaliana); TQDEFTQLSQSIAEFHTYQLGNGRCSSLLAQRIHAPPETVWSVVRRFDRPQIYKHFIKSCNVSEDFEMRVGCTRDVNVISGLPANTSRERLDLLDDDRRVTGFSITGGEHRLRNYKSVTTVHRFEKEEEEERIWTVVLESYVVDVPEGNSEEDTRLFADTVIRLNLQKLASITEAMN
Substitution,relative binding score [%]
Y115W,-1.33
I33M,3.91
C72P,-7.42
C60S,1.08
E109M,-3.24

# Series 2 — method: protein-binding microarray; form: double-stranded DNA, one strand shown; medium: in vitro; tested at: 2200 nM top; notes: 60-bp whole probe; added: salmon DNA 0.4 mg/ml; baseline: random background probes; reading: higher = stronger binding; all sequences stand within: GCCTAGCAC … GTCTTGATTCGCTTGACGCTGCTG
# Target: Interferon regulatory factor 7, full length, phosphomimetic (IRF7, Homo sapiens, UniProt Q92985, residues 1-503, S471D/S472D/S475D/S476D/S477D/S483D/S484D/S487D)
# Sequence of UniProt Q92985 (whole entry, unmodified, looked up): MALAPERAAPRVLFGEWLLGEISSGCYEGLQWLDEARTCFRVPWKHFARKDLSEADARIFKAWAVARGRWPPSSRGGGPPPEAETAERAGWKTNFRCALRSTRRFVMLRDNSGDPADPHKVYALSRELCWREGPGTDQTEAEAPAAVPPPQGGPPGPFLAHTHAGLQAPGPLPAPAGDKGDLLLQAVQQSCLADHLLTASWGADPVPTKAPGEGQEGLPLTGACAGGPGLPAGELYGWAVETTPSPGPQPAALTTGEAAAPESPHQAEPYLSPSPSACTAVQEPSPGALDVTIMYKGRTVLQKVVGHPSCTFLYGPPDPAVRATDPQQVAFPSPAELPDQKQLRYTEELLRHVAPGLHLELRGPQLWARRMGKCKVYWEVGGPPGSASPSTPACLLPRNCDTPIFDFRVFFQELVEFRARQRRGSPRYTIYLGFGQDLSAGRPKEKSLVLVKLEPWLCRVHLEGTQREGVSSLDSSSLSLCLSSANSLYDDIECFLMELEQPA
Strand,fitted relative affinity [z-score]
TTAGGTTTCGGTATCGGTAAGTGCTAG,7.75
TCACCTCTAACTTTCCAACTGTGCTAG,2.16
GACGATCTCAGTATCAAGACGTGCTAG,-0.128
TTAGATTTCAGGACTGGATTAGTGCTA,-0.19
TCGTATGTGACCTTTTTAAGAGTGCTA,0.926
TCAGCCATATTTATCTGACTGTGCTAG,0.451
TTAGGACTGCGTCTCGGTTAGTGCTAG,-0.0353

# Series 3 — method: protein-binding microarray; form: double-stranded DNA, one strand shown; medium: in vitro; tested at: 0.8 µM; notes: whole 60-bp probe, no competitor; reading: higher = stronger binding; all sequences stand within: … GTCTTGATTCGCTTGACGCTGCTG
# Target: Centromere-binding protein 1, full length, N-terminal tag (CBF1, Saccharomyces cerevisiae, UniProt P17106, residues 1-351)
# Sequence of UniProt P17106 (whole entry, looked up): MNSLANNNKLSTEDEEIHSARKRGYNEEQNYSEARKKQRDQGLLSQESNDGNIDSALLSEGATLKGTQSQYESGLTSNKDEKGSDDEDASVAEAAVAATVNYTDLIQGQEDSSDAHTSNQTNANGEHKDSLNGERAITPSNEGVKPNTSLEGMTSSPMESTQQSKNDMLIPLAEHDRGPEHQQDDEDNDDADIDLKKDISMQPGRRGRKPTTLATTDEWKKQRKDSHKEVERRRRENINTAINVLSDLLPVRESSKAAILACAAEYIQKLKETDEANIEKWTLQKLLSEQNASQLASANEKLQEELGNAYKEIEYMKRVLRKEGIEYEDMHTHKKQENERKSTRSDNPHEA
Strand,fluorescence intensity
GAAGCCATAACCAAGCGCACGCATACATATATATAG,522 a.u.
CTATGGAGTAAATGTCACGTGCCACTGTGGCCGTTC,18400 a.u.
CTAGTGGTATAGGCTCACGCGGCCTGGCCGGAATTC,524 a.u.
CTAAGTGTCTCATCAAACGTGGTTAAGACAGAATTC,546 a.u.
GAATAGACGATGACTCGCGTGCCAAATAGAATTTAG,569 a.u.
GAAGGAGCCCAGGCCTCCGTGACTCATAAAGGGTAG,596 a.u.
GAAGAACATCAGCACCACGCCCGCAACGACAAATAG,549 a.u.

# Single results of other studies
Substance,target,test,system,setting,how to read,measurement,result
"PhoQ, residues 284 288 289 292 302 303 NLGVHL","PhoP, residues 12 14 15 18 19 NQGLL (Escherichia coli, UniProt P23836)","Sort-seq, measured: YFP reporter",E. coli,"PhoQ-PhoP variant library, added: 10 µM Mg2+","baseline: high Mg2+ state, higher = stronger signaling",fold induction,4.27

# A few entries again (series 3):
Strand,fluorescence intensity
GAATAGACGATGACTCGCGTGCCAAATAGAATTTAG,569 a.u.
CTATGGAGTAAATGTCACGTGCCACTGTGGCCGTTC,18400 a.u.
GAAGCCATAACCAAGCGCACGCATACATATATATAG,522 a.u.
